# Published values collected from several papers.
# Every numbered part comes from another study and shows a few of its results, in no order.
# Sequence of UniProt P53671 (whole entry, looked up): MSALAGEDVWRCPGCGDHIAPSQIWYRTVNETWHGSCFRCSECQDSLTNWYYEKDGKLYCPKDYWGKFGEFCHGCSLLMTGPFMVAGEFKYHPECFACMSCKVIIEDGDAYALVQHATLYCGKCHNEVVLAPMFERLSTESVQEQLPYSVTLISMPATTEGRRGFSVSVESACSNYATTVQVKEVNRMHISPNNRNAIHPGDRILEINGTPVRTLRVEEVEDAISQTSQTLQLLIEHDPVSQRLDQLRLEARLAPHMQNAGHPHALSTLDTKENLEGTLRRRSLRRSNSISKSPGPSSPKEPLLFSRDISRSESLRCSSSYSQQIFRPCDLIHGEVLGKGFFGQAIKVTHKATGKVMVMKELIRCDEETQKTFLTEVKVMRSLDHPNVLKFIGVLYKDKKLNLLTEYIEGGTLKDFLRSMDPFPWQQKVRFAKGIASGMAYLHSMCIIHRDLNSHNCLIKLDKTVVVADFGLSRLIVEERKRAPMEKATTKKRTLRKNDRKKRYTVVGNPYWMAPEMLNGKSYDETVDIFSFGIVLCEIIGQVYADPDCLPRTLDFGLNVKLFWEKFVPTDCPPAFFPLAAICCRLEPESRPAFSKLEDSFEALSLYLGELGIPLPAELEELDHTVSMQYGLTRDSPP
# Sequence of UniProt Q8N752 (whole entry, looked up): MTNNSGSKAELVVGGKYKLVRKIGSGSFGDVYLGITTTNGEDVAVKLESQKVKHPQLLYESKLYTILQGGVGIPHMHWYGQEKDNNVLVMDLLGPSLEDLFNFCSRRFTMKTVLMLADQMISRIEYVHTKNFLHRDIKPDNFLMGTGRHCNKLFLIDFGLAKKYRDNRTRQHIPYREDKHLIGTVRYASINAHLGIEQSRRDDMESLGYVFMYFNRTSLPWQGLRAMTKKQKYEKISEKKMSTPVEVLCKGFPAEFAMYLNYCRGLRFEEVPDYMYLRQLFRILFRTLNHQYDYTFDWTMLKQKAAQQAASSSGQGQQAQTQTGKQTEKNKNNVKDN
# Sequence of UniProt O75460 (whole entry, looked up): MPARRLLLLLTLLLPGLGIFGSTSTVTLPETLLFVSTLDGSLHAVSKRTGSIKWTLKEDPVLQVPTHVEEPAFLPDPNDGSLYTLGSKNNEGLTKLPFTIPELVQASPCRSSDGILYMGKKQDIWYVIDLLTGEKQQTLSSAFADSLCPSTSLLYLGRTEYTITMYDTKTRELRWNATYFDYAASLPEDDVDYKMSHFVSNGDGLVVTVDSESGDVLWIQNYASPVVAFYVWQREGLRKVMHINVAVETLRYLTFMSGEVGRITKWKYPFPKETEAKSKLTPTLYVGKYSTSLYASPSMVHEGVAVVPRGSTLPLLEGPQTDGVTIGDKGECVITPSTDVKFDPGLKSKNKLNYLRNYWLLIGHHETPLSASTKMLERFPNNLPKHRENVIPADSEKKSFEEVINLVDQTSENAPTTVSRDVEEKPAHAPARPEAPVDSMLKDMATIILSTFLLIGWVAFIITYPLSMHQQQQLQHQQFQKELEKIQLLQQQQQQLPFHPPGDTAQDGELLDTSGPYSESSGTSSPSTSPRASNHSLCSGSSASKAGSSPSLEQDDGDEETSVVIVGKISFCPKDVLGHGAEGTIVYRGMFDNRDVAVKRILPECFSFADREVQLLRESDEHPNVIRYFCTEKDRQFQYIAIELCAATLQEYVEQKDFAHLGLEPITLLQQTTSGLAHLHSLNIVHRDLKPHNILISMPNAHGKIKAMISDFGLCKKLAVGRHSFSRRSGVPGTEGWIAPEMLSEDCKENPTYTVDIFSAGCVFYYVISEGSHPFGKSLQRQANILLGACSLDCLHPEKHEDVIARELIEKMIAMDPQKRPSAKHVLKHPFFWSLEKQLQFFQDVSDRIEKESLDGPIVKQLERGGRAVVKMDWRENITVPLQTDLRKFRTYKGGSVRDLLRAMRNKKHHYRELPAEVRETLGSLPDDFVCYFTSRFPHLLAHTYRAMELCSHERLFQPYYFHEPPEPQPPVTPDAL
# Sequence of UniProt Q15349 (whole entry, looked up): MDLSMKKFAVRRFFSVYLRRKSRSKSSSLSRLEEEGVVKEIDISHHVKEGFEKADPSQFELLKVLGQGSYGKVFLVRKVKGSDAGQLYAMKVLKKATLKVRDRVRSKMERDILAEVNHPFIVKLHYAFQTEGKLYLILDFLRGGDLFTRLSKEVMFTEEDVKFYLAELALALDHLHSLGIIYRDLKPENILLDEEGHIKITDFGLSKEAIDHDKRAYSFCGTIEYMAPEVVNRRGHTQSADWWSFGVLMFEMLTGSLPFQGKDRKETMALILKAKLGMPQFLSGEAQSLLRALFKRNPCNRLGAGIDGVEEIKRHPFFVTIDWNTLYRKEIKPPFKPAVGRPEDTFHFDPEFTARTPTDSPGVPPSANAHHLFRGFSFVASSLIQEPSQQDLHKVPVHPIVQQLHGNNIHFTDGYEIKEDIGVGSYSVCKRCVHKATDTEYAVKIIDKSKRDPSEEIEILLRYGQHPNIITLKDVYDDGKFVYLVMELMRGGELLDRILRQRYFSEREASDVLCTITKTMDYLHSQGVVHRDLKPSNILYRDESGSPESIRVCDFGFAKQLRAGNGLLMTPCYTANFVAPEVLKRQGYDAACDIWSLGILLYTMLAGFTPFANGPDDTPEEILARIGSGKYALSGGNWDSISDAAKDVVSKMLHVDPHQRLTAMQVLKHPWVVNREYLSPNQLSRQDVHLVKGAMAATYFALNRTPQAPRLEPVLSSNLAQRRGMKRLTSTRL
# Sequence of UniProt O96017 (whole entry, looked up): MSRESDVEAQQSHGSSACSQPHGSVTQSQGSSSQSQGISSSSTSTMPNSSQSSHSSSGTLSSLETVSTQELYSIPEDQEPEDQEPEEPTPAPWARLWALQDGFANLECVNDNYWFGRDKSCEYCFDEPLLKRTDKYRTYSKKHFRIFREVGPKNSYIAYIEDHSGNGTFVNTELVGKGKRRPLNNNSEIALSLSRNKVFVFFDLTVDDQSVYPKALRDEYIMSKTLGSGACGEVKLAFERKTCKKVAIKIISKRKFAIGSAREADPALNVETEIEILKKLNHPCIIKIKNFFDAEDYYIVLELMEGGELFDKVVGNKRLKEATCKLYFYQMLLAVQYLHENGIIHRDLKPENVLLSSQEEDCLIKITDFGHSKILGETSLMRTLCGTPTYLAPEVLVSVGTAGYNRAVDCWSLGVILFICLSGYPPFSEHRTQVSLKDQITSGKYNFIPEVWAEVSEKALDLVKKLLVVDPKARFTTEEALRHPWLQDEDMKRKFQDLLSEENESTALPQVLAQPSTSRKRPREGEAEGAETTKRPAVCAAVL
# Sequence of UniProt P31751 (whole entry, looked up): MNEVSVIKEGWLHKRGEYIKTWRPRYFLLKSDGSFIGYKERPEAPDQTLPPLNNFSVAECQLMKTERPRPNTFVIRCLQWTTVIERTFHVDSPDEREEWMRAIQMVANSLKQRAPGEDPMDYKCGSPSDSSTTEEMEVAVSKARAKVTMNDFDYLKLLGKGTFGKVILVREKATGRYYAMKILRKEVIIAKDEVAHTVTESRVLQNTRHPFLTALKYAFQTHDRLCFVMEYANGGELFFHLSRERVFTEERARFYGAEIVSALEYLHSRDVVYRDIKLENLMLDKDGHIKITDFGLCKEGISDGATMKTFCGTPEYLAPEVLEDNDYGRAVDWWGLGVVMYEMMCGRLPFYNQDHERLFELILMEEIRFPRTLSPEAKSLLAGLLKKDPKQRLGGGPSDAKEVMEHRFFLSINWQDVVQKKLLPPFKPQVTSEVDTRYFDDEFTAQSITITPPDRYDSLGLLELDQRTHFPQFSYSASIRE
# Sequence of UniProt P05771 (whole entry, looked up): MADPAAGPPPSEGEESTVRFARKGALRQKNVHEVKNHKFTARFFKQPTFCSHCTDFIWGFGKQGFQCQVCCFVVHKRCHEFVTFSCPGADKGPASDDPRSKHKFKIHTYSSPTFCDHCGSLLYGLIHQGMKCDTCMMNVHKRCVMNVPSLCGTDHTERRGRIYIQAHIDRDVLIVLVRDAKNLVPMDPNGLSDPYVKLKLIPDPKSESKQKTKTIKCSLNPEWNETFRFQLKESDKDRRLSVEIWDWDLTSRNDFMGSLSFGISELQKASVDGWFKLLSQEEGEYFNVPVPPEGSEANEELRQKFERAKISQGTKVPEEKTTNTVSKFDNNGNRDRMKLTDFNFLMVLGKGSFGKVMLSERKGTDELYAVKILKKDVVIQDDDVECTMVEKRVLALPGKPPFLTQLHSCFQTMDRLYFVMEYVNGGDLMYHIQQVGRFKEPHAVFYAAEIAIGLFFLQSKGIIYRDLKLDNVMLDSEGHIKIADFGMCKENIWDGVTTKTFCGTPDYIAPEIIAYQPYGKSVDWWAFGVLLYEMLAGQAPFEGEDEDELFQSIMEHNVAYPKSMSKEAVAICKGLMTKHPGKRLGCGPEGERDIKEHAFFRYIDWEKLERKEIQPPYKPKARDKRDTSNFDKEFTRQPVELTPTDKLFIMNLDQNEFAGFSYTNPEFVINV
# Sequence of UniProt P11802 (whole entry, looked up): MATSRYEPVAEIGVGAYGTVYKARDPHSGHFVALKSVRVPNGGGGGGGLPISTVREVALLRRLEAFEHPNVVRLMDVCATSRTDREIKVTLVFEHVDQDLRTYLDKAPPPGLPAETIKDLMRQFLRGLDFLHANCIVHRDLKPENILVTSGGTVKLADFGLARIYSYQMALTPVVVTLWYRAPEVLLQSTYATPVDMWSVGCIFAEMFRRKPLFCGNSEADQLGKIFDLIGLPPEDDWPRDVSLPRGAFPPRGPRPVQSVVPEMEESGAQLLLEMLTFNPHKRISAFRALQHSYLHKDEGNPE
# Sequence of UniProt Q00535 (whole entry, looked up): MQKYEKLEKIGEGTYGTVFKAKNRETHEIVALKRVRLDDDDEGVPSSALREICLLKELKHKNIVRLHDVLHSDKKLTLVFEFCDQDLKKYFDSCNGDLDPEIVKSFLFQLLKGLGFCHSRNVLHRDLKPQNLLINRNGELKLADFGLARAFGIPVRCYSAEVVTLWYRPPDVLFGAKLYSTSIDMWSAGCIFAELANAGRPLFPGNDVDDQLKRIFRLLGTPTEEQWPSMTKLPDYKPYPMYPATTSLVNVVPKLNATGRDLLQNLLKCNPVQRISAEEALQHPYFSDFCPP

# Set 1 — observed: binding; concentration: 1 µM
# Structure (SMILES): COc1ccc2[nH]c3c4[nH]c5ccc(OC)cc5c4c4c(c3c2c1)C(=O)NC4=O
target,technique,remaining binding
"LIM domain kinase 2 (LIMK2, Homo sapiens, UniProt P53671)",competition with immobilised ligand,81%
"EGFR (Homo sapiens, UniProt P00533, G719C)",,64%
"PKN1 (Homo sapiens, UniProt Q16512)",,42%
"VRK2 (Homo sapiens, UniProt Q86Y07)",competition with immobilised ligand,98%
"EPHA5 (Homo sapiens, UniProt P54756)",competition with immobilised ligand,85%
"LATS1 (Homo sapiens, UniProt O95835)",,100%

# Set 2 — cell line: A-375; concentration: 100 µM; time: 60 h
Compound,viability [%]
O=C1Nc2ccc(Cl)cc2[C@@](C#CC2CC2)(C(F)(F)F)O1,5.42
O=C(O)c1ccc[n+]([O-])c1,104
Cc1ccc(S(=O)(=O)NC(=O)NN2CC3CCC[C@@H]3C2)cc1 (stereo in doubt),56.3
CC[C@H](C)C(=O)O[C@H]1C[C@H](O)C=C2C=C[C@H](C)[C@H](CC[C@@H](O)C[C@@H](O)CC(=O)O)[C@H]21,99.8

# Set 3 — observed: enzyme activity; action: inhibitor; concentration: 0.5 µM; relative to: control
# SMILES: O=C(Nc1cccc(Nc2nccc(Nc3cccc(C(F)(F)F)c3)n2)c1)C1CC1
target,remaining activity [%]
"MAP3K3 (Homo sapiens, UniProt Q99759)",97.9
"TGFBR1 (Homo sapiens, UniProt P36897)",102
"cGMP-dependent protein kinase 1, isoform beta (PRKG1, Homo sapiens, UniProt Q13976)",97.6
"CAMK2D (Homo sapiens, UniProt Q13557)",93.5
"CHEK2 (Homo sapiens, UniProt O96017)",107
"Protein kinase C beta type, isoform beta-I (PRKCB, Homo sapiens, UniProt P05771)",94.7
"STK10 (Homo sapiens, UniProt O94804)",90.1
"IKBKB (Homo sapiens, UniProt O14920)",97.9
"Tyrosine-protein kinase Lyn, isoform B (LYN, Homo sapiens, UniProt P07948)",99.9
"DAPK2 (Homo sapiens, UniProt Q9UIK4)",120
"Cyclin-dependent kinase 5, with p25 (CDK5, Homo sapiens, UniProt Q00535)",99
"Cyclin-dependent kinase 4, with cyclin D1 (CDK4, Homo sapiens, UniProt P11802)",101

# Set 4 — concentration: 1 µM
# SMILES: COc1cc(-c2cn(C3CCc4ccccc4N(CC(F)(F)F)C3=O)nn2)ccc1-n1ccc(C)n1 (centres unmarked)
target,observed,technique,remaining binding [%]
"AXL (Homo sapiens, UniProt P30530)",binding,competition with immobilised ligand,93
"MYLK4 (Homo sapiens, UniProt Q86YV6)",cell-free assay,competition with immobilised ligand,100
"AKT2 (Homo sapiens, UniProt P31751)",cell-free assay,competition with immobilised ligand,93
"BMP2K (Homo sapiens, UniProt Q9NSY1)",cell-free assay,competition with immobilised ligand,100
"Ribosomal protein S6 kinase alpha-2, N-terminal kinase domain (RPS6KA2, Homo sapiens, UniProt Q15349)",cell-free assay,competition with immobilised ligand,100
"CSNK1A1L (Homo sapiens, UniProt Q8N752)",cell-free assay,competition with immobilised ligand,100
"AAK1 (Homo sapiens, UniProt Q2M2I8)",binding,,100
"FGFR1 (Homo sapiens, UniProt P11362)",cell-free assay,competition with immobilised ligand,99
"MAP3K15 (Homo sapiens, UniProt Q6ZN16)",cell-free assay,competition with immobilised ligand,84
"CSNK1D (Homo sapiens, UniProt P48730)",cell-free assay,competition with immobilised ligand,100
"Aurora kinase C (AURKC, Homo sapiens, UniProt Q9UQB9)",cell-free assay,competition with immobilised ligand,100
"ERN1 (Homo sapiens, UniProt O75460)",cell-free assay,competition with immobilised ligand,86
"CDK17 (Homo sapiens, UniProt Q00537)",cell-free assay,competition with immobilised ligand,100
"CDK19 (Homo sapiens, UniProt Q9BWU1)",,competition binding,72
"PIK3CA (Homo sapiens, UniProt P42336, Q546K)",cell-free assay,competition with immobilised ligand,97
"WNK3 (Homo sapiens, UniProt Q9BYP7)",cell-free assay,competition with immobilised ligand,100
"EGFR (Homo sapiens, UniProt P00533, del747-750/T751S)",cell-free assay,competition with immobilised ligand,100
"MET (Homo sapiens, UniProt P08581, M1250T)",cell-free assay,competition with immobilised ligand,100
"CDK13 (Homo sapiens, UniProt Q14004)",cell-free assay,competition with immobilised ligand,100

# A few entries again (set 4):
target,observed,technique,remaining binding [%]
"CDK17 (Homo sapiens, UniProt Q00537)",cell-free assay,competition with immobilised ligand,100
"CDK19 (Homo sapiens, UniProt Q9BWU1)",,competition binding,72
"PIK3CA (Homo sapiens, UniProt P42336, Q546K)",cell-free assay,competition with immobilised ligand,97
"WNK3 (Homo sapiens, UniProt Q9BYP7)",cell-free assay,competition with immobilised ligand,100
"EGFR (Homo sapiens, UniProt P00533, del747-750/T751S)",cell-free assay,competition with immobilised ligand,100
